Measured values gathered from unrelated publications.
Parts stem from different laboratories: compare values within a part only.

Sample 1 — technique: RNAcompete; form: RNA; matrix: in vitro; tested at: 20 nM; notes: 7-mer, probes averaged, single round; baseline: mean of 7-mers; direction: higher = stronger binding
Target: PABPC1L2, full length, GST fusion (mouse, UniProt A0ABA7IW68)
Residues (chain): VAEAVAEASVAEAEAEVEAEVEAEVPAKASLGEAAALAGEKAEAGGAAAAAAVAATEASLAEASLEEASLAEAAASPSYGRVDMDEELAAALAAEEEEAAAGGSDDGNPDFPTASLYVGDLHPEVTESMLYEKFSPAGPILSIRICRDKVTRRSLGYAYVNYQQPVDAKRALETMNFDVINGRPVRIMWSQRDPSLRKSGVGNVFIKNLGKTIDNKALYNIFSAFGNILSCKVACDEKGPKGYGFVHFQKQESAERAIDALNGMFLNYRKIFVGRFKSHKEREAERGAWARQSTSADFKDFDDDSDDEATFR
| Sequence | 7-mer Z-score |
| --- | --- |
| AAAUAUG | 3.29 |
| ACUAAGG | 0.173 |
| AGACACU | -0.171 |
| GCCAUAA | 0.0714 |
| UCAAUCC | -0.24 |

Sample 2 — technique: protein binding microarray; form: double-stranded DNA, one strand shown; matrix: in vitro; tested at: not given; baseline: not given; direction: higher = stronger binding
Target: Histone acetyltransferase KAT6A, winged helix 2, GST fusion (KAT6A, Homo sapiens, UniProt Q92794, residues 85-181)
Notes: 8-mer, flanks averaged, mean of 2 arrays, mostly near background
Target sequence (chain): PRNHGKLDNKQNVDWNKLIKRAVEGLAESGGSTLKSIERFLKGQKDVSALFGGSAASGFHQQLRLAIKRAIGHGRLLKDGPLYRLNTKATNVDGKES
| Sequence | E-score |
| --- | --- |
| CTGTGCTA | 0.133 |
| CCCGCGGG | 0.226 |
| ACGTCCAC | -0.152 |
| ATTTACCG | -0.107 |
| CTGACCTC | -0.00572 |
| ACGTCGAG | -0.0503 |
| CCACAAGA | 0.0934 |
| GGGAGCTA | -0.186 |
| CTTTCACA | 0.127 |

Sample 3 — technique: protein-binding microarray; form: double-stranded DNA, one strand shown; matrix: in vitro; tested at: 2200 nM top; notes: 60-bp whole probe; together with: salmon DNA 0.4 mg/ml; baseline: random background probes; direction: higher = stronger binding; all sequences stand within: GCCTAGCAC … GTCTTGATTCGCTTGACGCTGCTG
Target: Interferon regulatory factor 7, full length, phosphomimetic (IRF7, Homo sapiens, UniProt Q92985, residues 1-503, S471D/S472D/S475D/S476D/S477D/S483D/S484D/S487D)
Construct (chain): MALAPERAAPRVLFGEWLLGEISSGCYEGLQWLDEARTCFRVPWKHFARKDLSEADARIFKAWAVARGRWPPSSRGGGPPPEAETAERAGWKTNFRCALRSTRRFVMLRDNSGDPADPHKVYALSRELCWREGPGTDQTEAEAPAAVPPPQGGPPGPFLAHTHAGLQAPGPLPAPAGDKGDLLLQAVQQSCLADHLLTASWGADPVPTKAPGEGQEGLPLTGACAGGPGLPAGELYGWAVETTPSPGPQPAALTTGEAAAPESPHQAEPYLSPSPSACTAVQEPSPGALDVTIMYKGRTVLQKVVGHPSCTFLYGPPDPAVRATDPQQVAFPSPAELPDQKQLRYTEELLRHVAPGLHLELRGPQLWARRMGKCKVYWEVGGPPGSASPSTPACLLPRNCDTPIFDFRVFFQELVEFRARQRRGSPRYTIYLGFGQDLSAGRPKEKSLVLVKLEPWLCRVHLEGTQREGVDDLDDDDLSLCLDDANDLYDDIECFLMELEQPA
| Sequence | fitted relative affinity [z-score] |
| --- | --- |
| GACGACCTCAGTCTCGAGACGTGCTAG | 0.211 |
| TCTGTTTTTGCTTTCCTTCTGTGCTAG | 5.97 |
| TTAGGTCTCCTTTTCCTTTGGTGCTAG | 2.16 |
| GTAGGTATCGGGTATCGGTTAGTGCTA | 0.497 |
| TTAGATTTCAGTTTCGATTTGTGCTAG | 13.1 |
| CCAAGGTTCAAGTTTACCCATGTGCTA | 0.0396 |
| TCAGGTATCCTTCTCCTTTAGTGCTAG | 1.83 |
| GACGGTATCCTTCTCCTGACGTGCTAG | 1.22 |

Single results of other studies
| Molecule | target | assay | test system | conditions | how to read | quantity | result |
| --- | --- | --- | --- | --- | --- | --- | --- |
| PhoQ, residues 284 288 289 292 302 303 SMYGEC | PhoP, residues 12 14 15 18 19 LYHSL (Escherichia coli, UniProt P23836) | Sort-seq, item: YFP reporter | E. coli | PhoQ-PhoP variant library, together with: 10 µM Mg2+ | baseline: high Mg2+ state, higher = stronger signaling | fold induction | 3.48 |

Some of these lines once more (sample 1):
| Sequence | 7-mer Z-score |
| --- | --- |
| ACUAAGG | 0.173 |
| AGACACU | -0.171 |
| GCCAUAA | 0.0714 |
| UCAAUCC | -0.24 |
